Experimental data pooled from the literature.
Values joined by “and” are separate records of one study, mostly repeats; a detail may differ. Numbers after ± are the reported error. ≈ marks a conversion by molar mass, not a printed value.
CHRM1: Muscarinic acetylcholine receptor M1 (CHRM1, Homo sapiens, UniProt P11229)
UniProt P11229, sequence (whole entry, looked up): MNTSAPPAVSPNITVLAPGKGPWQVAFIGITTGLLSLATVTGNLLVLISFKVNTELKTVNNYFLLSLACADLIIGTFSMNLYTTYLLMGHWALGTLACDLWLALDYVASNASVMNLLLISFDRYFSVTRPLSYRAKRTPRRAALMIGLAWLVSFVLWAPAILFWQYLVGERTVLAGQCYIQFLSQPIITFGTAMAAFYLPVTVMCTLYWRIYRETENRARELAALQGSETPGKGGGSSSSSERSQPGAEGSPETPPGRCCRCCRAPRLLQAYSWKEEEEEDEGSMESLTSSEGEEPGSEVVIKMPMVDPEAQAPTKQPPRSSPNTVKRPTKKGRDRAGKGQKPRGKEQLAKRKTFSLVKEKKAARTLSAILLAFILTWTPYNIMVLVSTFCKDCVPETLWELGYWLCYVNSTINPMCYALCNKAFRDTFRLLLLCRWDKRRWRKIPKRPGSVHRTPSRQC

| Substance | tested on | test | system | setting | how to read | endpoint | value |
| --- | --- | --- | --- | --- | --- | --- | --- |
| CN[C@H](CC(C)C)C(=O)N[C@H]1C(=O)N[C@@H](CC(N)=O)C(=O)N[C@H]2C(=O)N[C@H]3C(=O)N[C@H](C(=O)N[C@H](C(=O)O)c4cc(O)cc(O)c4-c4cc3ccc4O)[C@H](O)c3ccc(c(Cl)c3)Oc3cc2cc(c3O[C@@H]2O[C@H](CO)[C@@H](O)[C@H](O)[C@H]2O[C@H]2C[C@](C)(N)[C@H](O)[C@H](C)O2)Oc2ccc(cc2Cl)[C@H]1O | – | – | BALB/c mouse, serum | iv, dose not given | – | serum globulin | 3 ± 0.2 g/dL |
| Cc1nc2cccc(OCC(C)(C)C(=O)NC(C)C)c2c(N)c1C(=O)O | – | – | male Sprague-Dawley rat, plasma | oral gavage, 10 mg/kg, day 1 | – | Tmax | 0.25 h |
| CCc1ccc(Cc2cc([C@@H]3O[C@H](CO)[C@@H](O)[C@H](O)[C@H]3O)cc3c2CCC3)cc1 | – | – | mouse C57BL/6, male, plasma | oral, 3 mg/kg | – | oral bioavailability | > 89% |
| CN(C)C(=O)c1cc2cnc(Nc3ccc(N4CCNCC4)cn3)nc2n1C1CCCC1 | – | LC-MS/MS | human, enhancing tumour tissue | oral, 600 mg once daily for 14 days, 4 to 8 h after last dose | – | total concentration | 23.5 nmol/g and 29.1 nmol/g and 33.5 nmol/g and 33.9 nmol/g |
| CSc1cc(C)nc(SC)c1NC(=O)CN1CCN(CCSc2nc3ccccc3[nH]2)CC1.Cl | – | – | CD-1 mouse, female, olfactory bulb | intranasal, 32.4 µg/10 µL, 7 days repeated | – | half-life | 7.93 min |
| O=C(CCc1ccccc1)c1cc(F)ccc1OCC(O)CN1CCN(C(c2ccccc2)c2ccccc2)CC1 (centres unmarked) | – | metabolic stability | human, liver microsomes | 20 µM, pH 7.4 | – | scaled CLint | 13 mL/min/kg |
| CNC(=O)c1cc(Oc2ccc(NC(=O)Nc3ccc(Cl)c(C(F)(F)F)c3)cc2)ccn1 | – | LC-MS/MS | nude mice, HepG2 subcutaneous tumour, tumour | intratumoral, 20 µL per tumour, control miRNA | – | t1/2 | 28.8 ± 6.91 h |
| C[C@](N)(Cc1ccc(O)c(O)c1)C(=O)O | – | static gravimetric method | supercritical CO2, 826.1 kg/m3 | 5 h, 323 K, pressure 24 MPa | – | solubility | 282 µg/mL (≈ 1330 µM) |
| O=C(NC[C@H](O)CO)c1ccncc1Nc1ccc(I)cc1F | – | – | human | oral, 60 mg, single dose with FOLFIRI | – | apparent volume of distribution | 348 L |
| CCc1cc2c(cc1N1CCC(N3CCOCC3)CC1)C(C)(C)c1[nH]c3cc(C#N)ccc3c1C2=O | – | – | moderate hepatic impairment patients, plasma, total | oral, 300 mg single dose, fed | – | Vz/F | 4350 L |
| CC(C)(C)OC[C@@H]1C(=O)NCCN1C(=O)C[C@H](N)Cc1cc(F)c(F)cc1F | – | – | human | 5 mg once daily, day 10 | – | AUC(tau) at steady state | 105 ± 20.6 ng·h/mL |
| N=C(N)c1ccc(CNC(=O)[C@@H]2CCN2C(=O)[C@H](NCC(=O)O)C2CCCCC2)cc1 | – | – | Wistar rats male, plasma | intravenous, 0.03 mg/kg, 15 min, 10 min after TF | – | plasma concentration | 45.9 ± 5.7 ng/mL |
| CN(C)Cc1c(C(=O)NCCOc2ccc(C(=O)NO)cc2)oc2ccccc12 | – | – | human, plasma | oral, 80 mg, single dose on day -3 | – | half-life (median) | 4.81 h |
| Cc1ncnc2c1c(Cl)cn2[C@@H]1O[C@H](CO)[C@@H](O)[C@H]1O | – | – | mouse liver microsomes | 60 min, with: NADPH | – | remaining compound | 87% |
| CC1=C2C[C@H]3[C@@H](CC[C@@H]4C[C@H](NS(C)(=O)=O)CC[C@@]43C)[C@@H]2CC[C@@]2(C1)O[C@@H]1C[C@H](C)CN[C@H]1[C@H]2C | – | – | patients, plasma | oral, 90 mg single, day -7, cycle 1 | – | AUC(0-24) | 263 ng·h/mL |
| CC1(C)Oc2cc3oc(=O)ccc3cc2C[C@@H]1O | – | – | male CD-1 mouse, plasma | oral gavage, 80 mg/kg daily, 4 weeks | – | plasma ALP activity | 44.2 ± 6.1 U/L |
| O=C(O)c1ccc(COc2ccccc2-c2cc(=O)n(C3CCCCC3O)cn2)cc1 (centres unmarked) | CHRM1 | positive allosteric modulator, IP1 accumulation | CHO-M1 cells | 1 µM, 60 min, 37 °C, with: ACh | baseline: ACh alone, higher = stronger potentiation | ΔpEC50 of ACh | 0.37 ± 0.1 log units |
| CC(=O)Nc1noc(C)n1 | – | HPLC-MS | C57BL/6 mouse, male, intestine | oral, 60 mg/kg, 45 min | – | concentration | 1020 to 8460 ng/g |

| Substance | tested on | test | system | setting | how to read | endpoint | value |
| --- | --- | --- | --- | --- | --- | --- | --- |
| CC(C)(CC(=O)N1CCCC1)NCC(=O)N1C[C@@H](F)C[C@H]1C#N | – | – | Chinese type 2 diabetes patients, plasma | oral, 50, 100, 200 mg, multiple once-daily doses, range of group means | – | steady-state half-life | 7.4 to 10.2 h |
| O=c1cc(-c2ccccc2OCc2ccc(Br)cc2F)ncn1C1CCCCC1O (centres unmarked) | CHRM1 | positive allosteric modulator, IP1 accumulation | CHO-M1 cells | 1 µM, 60 min, 37 °C, with: ACh | baseline: ACh alone, higher = stronger potentiation | ΔpEC50 of ACh | 0.37 ± 0.09 log units |
| CCCOc1ccc([C@H]2CNC(=O)N2c2ccc3[nH]cnc3c2)cc1 | – | – | human, plasma | oral, 50 mg, single dose, fasted | – | Cmax | 199 ng/mL |
| CNCc1ccc(-c2[nH]c3cc(F)cc4c3c2CCNC4=O)cc1 | – | – | human | oral, 300 mg once daily, day 15, steady state, median | – | Tmax | 2.53 h |
| O=c1cc(-c2ccccc2)oc2cc(O)cc(O)c12 | – | – | phosphate buffer | pH 6.8, added from DMSO stock | – | precipitation concentration | > 400 µM |
| O=C1NC(=O)C(c2ccccc2)(c2ccccc2)N1 | – | – | rat, brain slices | 3.64 µM, 90 min | – | distribution volume | 4.28 ± 0.07 mL/g brain |
| CON | – | – | human, whole blood on ice | 60 min before centrifugation | – | blood concentration | 10.4 ng/mL |
| CC(C)C[C@H](NC(=O)[C@H](CCCNC(=N)N)NC(=S)Nc1ccc(C[C@H]2CN(CC(=O)O)CCN(CC(=O)O)CCN2CC(=O)O)cc1)C(=O)N[C@@H](CC(N)=O)C(=O)N[C@H](C(=O)NCC(=O)NCC(=O)N[C@H](C(=O)N[C@@H](Cc1ccc(O)cc1)C(=O)N[C@@H](Cc1ccccc1)C(=O)N[C@@H](CC(C)C)C(=O)N[C@H](C(=O)N[C@H](C(=O)N[C@@H](CCCNC(=N)N)C(=O)N[C@@H](CCC(N)=O)C(=O)O)[C@@H](C)O)[C@@H](C)O)[C@@H](C)O)C(C)C [fluorine-18 labelled] | – | radio-HPLC | mouse (HepG2 tumour-bearing), blood | intravenous, 5.55 MBq, 1 h | – | intact parent radiotracer | 96.7 ± 1.55% |
| O=C1N=C(N2CCOCC2)CN1c1ccc(Cl)cc1 | – | – | beagle dog, both sexes, plasma | oral, 30 mg/kg, tablets, fasted, day 0 | – | terminal half-life | 1.55 h |
| c1ccc2[nH]c(-c3ccsc3)cc2c1 | RAW264.7 | NO release, inhibitor, Griess | – | 50 µM, 20 h, LPS-stimulated | – | inhibition | 66.3% |
| liraglutide | – | equilibrium dialysis | human plasma, diluted | 10 nM | – | plasma protein binding | no effect |
| des-acyl ghrelin (human) | – | – | mouse, wild type, cortex | intravenous, 10 min | – | brain/serum ratio | 7.56 µL/g |
| COc1cccc(CN)c1O | – | – | mouse C57BL/6N male, brain | oral drinking water, 7 g/L/day, 1 week | – | brain concentration | 191 µM |
| CC(C)=CCC[C@](C)(O[C@@H]1O[C@H](CO)[C@@H](O)[C@H](O)[C@H]1O)[C@H]1CC[C@]2(C)[C@@H]1[C@H](O)C[C@@H]1[C@@]3(C)CC[C@H](O)C(C)(C)[C@@H]3[C@@H](O[C@@H]3O[C@H](CO)[C@@H](O)[C@H](O)[C@H]3O[C@@H]3O[C@@H](C)[C@H](O)[C@@H](O)[C@H]3O)C[C@]12C | – | – | Sprague Dawley rat, male, plasma | oral, 45 mg/kg, in white ginseng extract | – | CL/F | 360 ± 90 mL/min/kg |
| CN1CC[C@@H](NC(=O)Nc2ccc(C#N)cc2)C[C@@H]1c1nc2ccccc2[nH]1 | – | – | severe hepatic impairment, plasma | oral, 100 mg single dose, fasted, arithmetic mean | – | AUC(0-inf), unbound | 1060 ± 384 ng·h/mL |
| COc1cc(/C=C/C(=O)CC(=O)/C=C/c2ccc(O)c(OC)c2)ccc1O | – | I-125 label | C57BL/6J mouse, olfactory lobes | intranasal vs intraperitoneal, 10 µg/mouse IN, 100 µg/mouse IP, 4 h | baseline: intranasal over intraperitoneal | brain uptake ratio | 5.19 |
| CC(C)NC[C@@H](C(=O)N1CCN(c2ncnc3c2[C@H](C)C[C@H]3O)CC1)c1ccc(Cl)cc1 | – | – | human, Healthy hepatic function (Child-Pugh), plasma | oral, 100 mg single dose, arithmetic mean | – | t1/2 | 49.8 h |

A few entries again:
| Substance | tested on | test | system | setting | how to read | endpoint | value |
| --- | --- | --- | --- | --- | --- | --- | --- |
| Cc1ncnc2c1c(Cl)cn2[C@@H]1O[C@H](CO)[C@@H](O)[C@H]1O | – | – | mouse liver microsomes | 60 min, with: NADPH | – | remaining compound | 87% |
| CC(C)=CCC[C@](C)(O[C@@H]1O[C@H](CO)[C@@H](O)[C@H](O)[C@H]1O)[C@H]1CC[C@]2(C)[C@@H]1[C@H](O)C[C@@H]1[C@@]3(C)CC[C@H](O)C(C)(C)[C@@H]3[C@@H](O[C@@H]3O[C@H](CO)[C@@H](O)[C@H](O)[C@H]3O[C@@H]3O[C@@H](C)[C@H](O)[C@@H](O)[C@H]3O)C[C@]12C | – | – | Sprague Dawley rat, male, plasma | oral, 45 mg/kg, in white ginseng extract | – | CL/F | 360 ± 90 mL/min/kg |
| CN(C)Cc1c(C(=O)NCCOc2ccc(C(=O)NO)cc2)oc2ccccc12 | – | – | human, plasma | oral, 80 mg, single dose on day -3 | – | half-life (median) | 4.81 h |
| O=C(CCc1ccccc1)c1cc(F)ccc1OCC(O)CN1CCN(C(c2ccccc2)c2ccccc2)CC1 (centres unmarked) | – | metabolic stability | human, liver microsomes | 20 µM, pH 7.4 | – | scaled CLint | 13 mL/min/kg |
| CN[C@H](CC(C)C)C(=O)N[C@H]1C(=O)N[C@@H](CC(N)=O)C(=O)N[C@H]2C(=O)N[C@H]3C(=O)N[C@H](C(=O)N[C@H](C(=O)O)c4cc(O)cc(O)c4-c4cc3ccc4O)[C@H](O)c3ccc(c(Cl)c3)Oc3cc2cc(c3O[C@@H]2O[C@H](CO)[C@@H](O)[C@H](O)[C@H]2O[C@H]2C[C@](C)(N)[C@H](O)[C@H](C)O2)Oc2ccc(cc2Cl)[C@H]1O | – | – | BALB/c mouse, serum | iv, dose not given | – | serum globulin | 3 ± 0.2 g/dL |
| liraglutide | – | equilibrium dialysis | human plasma, diluted | 10 nM | – | plasma protein binding | no effect |
